Measured values pooled from the literature.
Compare with care: the assays were run in different laboratories. Several values in a cell are separate wells, animals, samples, runs or records.
Target: Maternal embryonic leucine zipper kinase (MELK, Homo sapiens, UniProt Q14680)

| Structure (SMILES) | test | test system | conditions | how to read | quantity | result |
| --- | --- | --- | --- | --- | --- | --- |
| CN1CCN(Cc2ccc(-c3ccc(CO[C@H]4CCC[C@@H]4NC(=O)c4cc(-c5cnn(C)c5)cnc4N)cc3)cc2)CC1 | enzyme activity, inhibitor | – | 0.1 µM | – | inhibition | 20% |
| Nc1ncc(-c2cc(-c3cnn(CC(F)(F)F)c3)ncc2F)nc1C(=O)NC1CNCC(F)C1 (stereo not shown) | enzyme activity | – | 1 µM | reference: DMSO control | remaining activity | 81% |
| Cc1cccc(O[C@H]2CCC[C@@H](C(C)CNCc3ccncc3)C2)c1 (relative stereo) | enzyme activity, inhibitor | – | 10 µM | – | inhibition | -4% |
| NC(=O)[C@@H](O)C[C@H]1CCc2sc3ncnc(O[C@H]4CC[C@H](N5CCOCC5)CC4)c3c21 | enzyme activity, inhibitor | – | 10 µM | – | inhibition | 9% |
| COc1cc(Nc2nc(C)cc(-c3cnn4nc(OC)ccc34)n2)cc(C(F)(F)F)c1 | inhibitor | – | 1 µM | reference: control | remaining activity | 97% |
| CS(=O)(=O)Nc1cccc(-c2csc3cnc(Nc4ccc(N5CCN(CCCCCOc6cccc7c6C(=O)N(C6CCC(=O)NC6=O)C7=O)CC5)cc4)nc23)c1 (stereo not shown) | probe labelling, inhibitor, KiNativ chemoproteomics | MOLT-4 | 1 µM | – | inhibition | 19.5% |
| Cc1ccc(-c2c(/C=C(\C#N)C(=O)NC(C)C)n(CCCO)c3ncnc(N)c23)cc1 | cell-free assay, competition with immobilised ligand | – | 1 µM | – | remaining binding | 100% |
| C=CC(=O)N1CCCC(n2c(=O)c3ncccc3n(Cc3ccc(Oc4ccccc4)cc3)c2=O)C1 (stereo not shown) | cell-free assay, competition with immobilised ligand | – | 1 µM | – | remaining binding | 97% |
| C=CC(=O)Nc1cccc(-c2cnc3[nH]cc(C(=O)NC(C)(C)C)c3n2)c1 | enzyme activity, inhibitor | – | 0.1 µM | – | inhibition | 11% |
| C[C@H]1CN(C(=O)c2cn(-c3ccnc(N)n3)c3cc(C#CC4(O)CCCCC4)ccc23)CCN1 | enzyme activity, inhibitor, FRET | – | 1 µM | – | inhibition | 3% |
| CNC(=O)C1CCN(c2cc(C)c(F)cc2NC(=O)c2ccc(-c3cc(O)ccc3C)c(C)c2)CC1 | binding, competition with immobilised ligand | – | 1 µM | – | remaining binding | 60% |
| Cc1cccc(-c2ccc3nc(NC(=O)C4CCCO4)nn3c2)c1 (stereo not shown) | enzyme activity, Dundee kinase panel | – | 10 µM | – | remaining activity | 65% |
| CCn1cc(C(=O)O)c(=O)c2c(N)c(F)c(NC3CCCCC3)cc21 | kinase activity | – | 0.1 µM, with: ATP at Km | – | inhibition | 19.7% |
| Cc1ccc(C)c(-c2ccc3nc(NC(=O)C4CCCCC4)nn3c2)c1 | enzyme activity, Dundee kinase panel | – | 10 µM | – | remaining activity | 62% |
| COc1c(Cl)cccc1Nc1c(-c2ccncc2C#C[C@@]2(C)CCCN2C(=O)/C=C/CN(C)C)[nH]c2c1C(=O)NCC2 | binding, competition with immobilised ligand | – | 3 µM | – | remaining binding | 23% |
| N[C@H]1CC[C@H](Nc2nccc(-c3cccnc3Oc3ccc(NC(=O)NC4CC4)c4ccccc34)n2)CC1 | kinobead competition pulldown | HEK293/HCT116 lysate mixture | 10 µM, 1 h, 4 °C | lower = stronger competition | log2 LFQ intensity | 21.6 and 21.5 and 21.8 |
| O=C=[N][Ru-4]123([n]4c5ccc(O)cc5c5c6c(c7cc(F)c[n+]1c7c54)C(=O)NC6=O)[S+]1CC[S+]2CC[S+]3CC1 (stereo not shown) | enzyme activity | – | 100 nM, human enzyme, with: 10 µM ATP | reference: untreated | remaining activity | 4% |
| COc1c(OCCCN2CCOCC2)ccc2c1N=C(NC(=O)c1cnc(N)nc1)N1CCN=C21 | kinase activity, inhibitor | – | 1 µM | reference: untreated control | remaining activity | 104% |
| C=CC(=O)N1Cc2nc(-c3cc(-c4cc(Cl)cnc4Cl)c(F)cc3F)n(-c3ccncn3)c2C1 | cell-free assay, inhibitor | – | 1 µM | – | inhibition | 13.3% |

Excerpt of the above:
| Structure (SMILES) | test | test system | conditions | how to read | quantity | result |
| --- | --- | --- | --- | --- | --- | --- |
| Cc1ccc(C)c(-c2ccc3nc(NC(=O)C4CCCCC4)nn3c2)c1 | enzyme activity, Dundee kinase panel | – | 10 µM | – | remaining activity | 62% |
